Measurements collected from several papers.
Protocols differ between the studies behind these lines. ± gives the spread as reported.

| Compound | target or system | test | system | conditions | measurement | result |
| --- | --- | --- | --- | --- | --- | --- |
| COc1ccc(CNc2nc(N3CCC[C@H]3CO)ncc2C(=O)NN)cc1Cl | Salmonella typhimurium | – | TA98 | 500 µg/plate, 48 h, together with: rat liver S9 | revertant count | 37 ± 2 |
| C[C@@](O)(C(F)F)[C@H](NC(=O)c1ccc(C#CC#CC2CC2)cc1)C(=O)NO | – | – | dog, plasma | intravenous, 100 mg/kg | Cmax | 100 µg/mL |
| COc1ccc(CNc2nc(N3CCC[C@H]3CO)ncc2C(=O)NNC(=O)c2cnc(N3CCC[C@H]3CO)nc2NCc2ccc(OC)c(Cl)c2)cc1Cl | Salmonella typhimurium | – | TA1535 | 500 µg/plate, 48 h, together with: rat liver S9 | revertant count | 35 ± 7 |
| COc1cc(C(=O)NCCOCCOCCOCCNC(=O)c2ccc([18F])nc2)ccc1NC(=O)C1NC(CC(C)(C)C)C(C#N)(c2ccc(Cl)cc2F)C1c1cccc(Cl)c1F (centres unmarked) | SJSA-1 tumour model | – | host not given, heart | 1 h, tumour-bearing | tracer uptake | 1.16 %ID/g |
| CN[C@](C)(C[18F])C(=O)O | A549 tumour model | – | host not given, tumour | 15 min, tumour-bearing | tracer uptake | 4.4 %ID/g |
| CN(C)CC1CCCCC1(O)c1cccc(O)c1 (centres unmarked) | human P-glycoprotein | – | Caco-2 TC7 monolayer | 50 µM, 3 h, apical pH 6.8, basolateral pH 7.4, together with: cyclosporine A 10 µM | Papp B-to-A | 16.1 ± 0.7 ×10⁻⁶ cm/s |
| CC[C@H](C)C(=O)N1CCC(NC(=O)Nc2ccc(OC(F)(F)F)c(F)c2)CC1 | – | – | healthy volunteers, both sexes | oral, 8 mg, fed state | subjects with treatment-emergent headache | 7.1% |
| CCC(=O)N(C)c1ccc(Cl)c(Cl)c1 | Salmonella typhimurium | Ames test | TA1537 | 1.00 mg/plate, without S9 activation | revertants | 1 ± 0.6 revertants/plate |

Repeated from above:
| Compound | target or system | test | system | conditions | measurement | result |
| --- | --- | --- | --- | --- | --- | --- |
| COc1ccc(CNc2nc(N3CCC[C@H]3CO)ncc2C(=O)NNC(=O)c2cnc(N3CCC[C@H]3CO)nc2NCc2ccc(OC)c(Cl)c2)cc1Cl | Salmonella typhimurium | – | TA1535 | 500 µg/plate, 48 h, together with: rat liver S9 | revertant count | 35 ± 7 |
